Published values pooled from the literature.
“And” joins repeats or separate records; there may be more than shown. Numbers after ± are the reported error.

Compound	target or system	test	system	setting	scale	quantity	value
N#Cc1cccc(-c2ccc([C@H]3[C@@H](F)[C@@H](F)C[C@@H](F)[C@H]3F)cc2)c1	–	liver microsome stability	mouse liver microsomes	1 µM	–	hepatic clearance	20 mL/min/kg
O=C1CCCC2=C1C(c1c[nH]c3ccccc13)c1cc(Br)ccc1O2 (stereo not drawn)	3T3-L1 mature adipocytes	lipolysis, Oil Red O staining	–	IC20	–	mean lipid content	0.665 OD492
N#CCNC(=O)c1ccc(C2CCCCC2)cc1	–	liver microsome stability	cynomolgus liver microsomes	1 µM	–	hepatic clearance	41 mL/min/kg
CNS(=O)(=O)Nc1nccc(Cc2c(C)c3ccc(Oc4ncccc4F)cc3oc2=O)c1F	SK-CO-1	cell viability	–	7 days	–	IC50	2.02 nM
CCCCCCc1cccc([C@H](O)C[C@H](CO)NC(=O)CCCCCOc2ccc3ccccc3c2)c1	HeLa	HPLC-MS-MS lipidomics, refers to: C20 SM and ceramide	–	1 µM, 24 h	baseline: SM over Cer	SM/Cer ratio	35 ,0
Cc1ncsc1-c1ccc(C(C)NC(=O)C2CC(O)CN2C(=O)C(NC(=O)CCCCCCCCCCN2CCCC(Nc3ncc(Cl)c(Nc4ccccc4S(=O)(=O)C(C)C)n3)C2)C(C)(C)C)cc1 (stereo not drawn)	22Rv1	RNA-seq, refers to: TRPV1 mRNA	–	concentration not given	baseline: DMSO	log2 fold change	-1.63
CCC(=CCc1c(O)cc2c(c1O)C(=O)CC(c1cc(O)ccc1OC)O2)CC (stereo not drawn)	HeLa	cell growth or viability, MTT	–	12.5 µM, 48 h	–	inhibition	17.2%
CN1CCCNC(=O)c2cccc(c2)C(=O)NCCCN(C)CCCNc2cccc3c2C(=O)c2cccc(c2C3=O)NCCC1	SAS	RNA-Seq, refers to: GADD45B mRNA	–	1 µM, 6 h	baseline: untreated cells	log2 fold change	0.226
CC[C@H](C)[C@H](NC(=O)[C@H](CCCC(=O)O)NC(=O)[C@H](CC(=O)O)NC(C)=O)C(=O)N[C@@H](CC(=O)O)C(=O)COC(=O)c1c(C)cccc1C	THP-1 cells, LPS-primed	pyroptosis, LDH release	–	25 µM, LPS 1 µg/mL, 4 h, with: nigericin 5 µM, 2 h	–	cell lysis	98.1% and 73.8%
CCN(CC)CC(=O)Nc1cccc(-n2cc(-c3ccc4ccc(-c5cn(-c6cccc(NC(=O)CN(CC)CC)c6)nn5)cc4c3)nn2)c1	RCC4	PCR angiogenesis array, refers to: FIGF	–	5 x IC50, 2 h, normoxia	baseline: untreated	fold regulation	1.43
CC(C)Cc1ccc(C(C)C(=O)[Se]CC(=O)Nc2cccc(C(F)(F)F)c2)cc1 (stereo not drawn)	NCI60 leukemia subpanel	cell growth	–	10 µM, 48 h, one-dose	–	mean growth percent	-67.4%
C[n+]1ccc(/C=N/NC(=O)N/N=C/c2cc[n+](C)cc2)cc1	22CTA telomeric G4-DNA antiparallel	FRET melting	–	1 µM, K10 buffer, DNA 0.2 µM, with: ds26 10 µM	–	ΔTm	0.7 ± 0.6 °C
COc1ccc(NC(=O)c2ccc3[nH]c(-c4ccc(N(C)C)cc4)nc3c2)cn1	HCEC-hTERT	IncuCyte	–	concentration not given, 24 h	–	dead cell to confluence ratio	13.8 and 54.1 and 2.13
O=C(N/N=C/c1ccc(C[n+]2ccccc2)cc1)c1cccc(C(=O)N/N=C/c2ccc(C[n+]3ccccc3)cc2)c1	22CTA telomeric G4-DNA antiparallel	FRET melting	–	1 µM, K10 buffer, DNA 0.2 µM	–	ΔTm	3.5 ± 0.3 °C
Cc1cc(Cl)cc(-c2ccnc3cc(CN4C(=O)C5C(C4=O)C5(C)C)sc23)c1C[C@@H]1CNCCO1 (stereo partly drawn)	CHP-212 resistant cells (pooled)	PI flow cytometry	–	0.1 µM, 24 h	–	cells in G1 phase	70.5% and 67.6% and 71.7%
COC1CCN(C(=O)/C=C/c2nn(Cc3cccc(C(F)(F)F)c3)c3nc(N)ncc23)CC1	OE33	cell growth or viability, resazurin	–	5 days	–	EC50	1760 nM
CCC(=CCc1c(O)cc2c(c1O)C(=O)CC(c1cccc(OC)c1O)O2)CC (stereo not drawn)	HeLa	cell growth or viability, MTT	–	25 µM, 48 h	–	inhibition	65.3%
CC12CCCC(NC(=O)c3ccc(F)cc3F)(C1)C1CC(C)(C)C1CC2 (stereo not drawn)	HT-29	cell growth or viability, CCK-8	–	10 µM	–	inhibition	< 50%
O=S(=O)(N[C@H]1CCO[C@@H](C2c3ccccc3CCc3ccccc32)C1)c1ccc(OC(F)(F)F)cc1	D425	CellTiter	–	concentration not given, 72 h	–	cell proliferation	decreased
CC(=O)c1ccc(S(=O)(=O)NC23CCCC(C)(CCC4C2CC4(C)C)C3)cc1 (stereo not drawn)	HT-29	cell growth or viability, CCK-8	–	50 µM	–	inhibition	98.9%
C[C@@H]1CC[C@@H]([C@](O)(CNCc2cccc(F)c2)COCc2ccccc2)[C@H](OCc2ccccc2)C1	A2780	cell growth or viability, MTT	–	10 µM, 72 h	–	inhibition	95%
